# Assay results gathered from unrelated publications.
# Numbered parts are unrelated; each lists some results of a single study. “And” joins repeats or separate records; there may be more than shown.
# Chain of UniProt P15170 (whole entry, looked up): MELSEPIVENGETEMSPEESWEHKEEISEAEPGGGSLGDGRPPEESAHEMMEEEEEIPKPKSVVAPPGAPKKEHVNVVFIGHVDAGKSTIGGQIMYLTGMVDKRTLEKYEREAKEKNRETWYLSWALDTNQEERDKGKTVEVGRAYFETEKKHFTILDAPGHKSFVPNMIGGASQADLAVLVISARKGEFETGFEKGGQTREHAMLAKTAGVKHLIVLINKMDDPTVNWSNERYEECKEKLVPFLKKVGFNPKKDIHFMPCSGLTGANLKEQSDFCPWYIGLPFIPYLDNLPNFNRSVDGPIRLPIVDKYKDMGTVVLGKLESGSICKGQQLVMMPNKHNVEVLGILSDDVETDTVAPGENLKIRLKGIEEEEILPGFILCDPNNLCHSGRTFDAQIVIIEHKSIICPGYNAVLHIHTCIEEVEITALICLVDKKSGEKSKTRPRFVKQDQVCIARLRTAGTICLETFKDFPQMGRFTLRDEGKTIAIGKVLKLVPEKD

# Sample 1
# Compound: Cn1cc(-c2cccc(CN3CCC4(CC3)COc3c4ccc4c3CN([C@H]3CCC(=O)NC3=O)C4=O)c2)cn1
# Mode: degrader
# CRBN/Zinc finger protein Helios: CRBN/Zinc finger protein Helios (Homo sapiens, UniProt Q96SW2+Q9UKS7)
# Chain of UniProt Q9UKS7 (whole entry, looked up): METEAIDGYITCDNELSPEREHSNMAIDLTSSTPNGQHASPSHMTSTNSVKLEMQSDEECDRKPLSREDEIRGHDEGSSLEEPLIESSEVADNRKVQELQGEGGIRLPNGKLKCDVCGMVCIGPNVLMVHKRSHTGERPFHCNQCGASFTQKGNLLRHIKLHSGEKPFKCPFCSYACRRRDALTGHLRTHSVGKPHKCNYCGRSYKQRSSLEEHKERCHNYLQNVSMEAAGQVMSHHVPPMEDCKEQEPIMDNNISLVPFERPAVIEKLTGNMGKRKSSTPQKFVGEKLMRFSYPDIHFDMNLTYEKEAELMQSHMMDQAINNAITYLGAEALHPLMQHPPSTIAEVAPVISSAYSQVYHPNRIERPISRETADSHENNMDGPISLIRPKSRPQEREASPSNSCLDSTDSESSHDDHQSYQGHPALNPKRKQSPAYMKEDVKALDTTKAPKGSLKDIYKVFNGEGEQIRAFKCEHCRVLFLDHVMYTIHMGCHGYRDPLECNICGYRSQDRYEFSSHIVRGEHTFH
# Chain of UniProt Q96SW2 (whole entry, looked up): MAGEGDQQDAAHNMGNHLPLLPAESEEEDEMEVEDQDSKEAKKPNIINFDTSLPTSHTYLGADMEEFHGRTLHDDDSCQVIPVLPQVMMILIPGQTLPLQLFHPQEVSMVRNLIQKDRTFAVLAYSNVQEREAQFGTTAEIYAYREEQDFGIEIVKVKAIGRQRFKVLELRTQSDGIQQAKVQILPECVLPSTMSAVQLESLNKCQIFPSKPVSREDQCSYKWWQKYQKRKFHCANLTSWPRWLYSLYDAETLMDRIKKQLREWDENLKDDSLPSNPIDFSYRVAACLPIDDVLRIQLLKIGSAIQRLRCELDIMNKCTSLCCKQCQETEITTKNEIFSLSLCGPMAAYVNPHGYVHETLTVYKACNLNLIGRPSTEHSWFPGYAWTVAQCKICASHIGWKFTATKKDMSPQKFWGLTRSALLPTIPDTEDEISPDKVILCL
# SALL4: Sal-like protein 4 (SALL4, Homo sapiens, UniProt Q9UJQ4)
# Chain of UniProt Q9UJQ4 (whole entry, looked up): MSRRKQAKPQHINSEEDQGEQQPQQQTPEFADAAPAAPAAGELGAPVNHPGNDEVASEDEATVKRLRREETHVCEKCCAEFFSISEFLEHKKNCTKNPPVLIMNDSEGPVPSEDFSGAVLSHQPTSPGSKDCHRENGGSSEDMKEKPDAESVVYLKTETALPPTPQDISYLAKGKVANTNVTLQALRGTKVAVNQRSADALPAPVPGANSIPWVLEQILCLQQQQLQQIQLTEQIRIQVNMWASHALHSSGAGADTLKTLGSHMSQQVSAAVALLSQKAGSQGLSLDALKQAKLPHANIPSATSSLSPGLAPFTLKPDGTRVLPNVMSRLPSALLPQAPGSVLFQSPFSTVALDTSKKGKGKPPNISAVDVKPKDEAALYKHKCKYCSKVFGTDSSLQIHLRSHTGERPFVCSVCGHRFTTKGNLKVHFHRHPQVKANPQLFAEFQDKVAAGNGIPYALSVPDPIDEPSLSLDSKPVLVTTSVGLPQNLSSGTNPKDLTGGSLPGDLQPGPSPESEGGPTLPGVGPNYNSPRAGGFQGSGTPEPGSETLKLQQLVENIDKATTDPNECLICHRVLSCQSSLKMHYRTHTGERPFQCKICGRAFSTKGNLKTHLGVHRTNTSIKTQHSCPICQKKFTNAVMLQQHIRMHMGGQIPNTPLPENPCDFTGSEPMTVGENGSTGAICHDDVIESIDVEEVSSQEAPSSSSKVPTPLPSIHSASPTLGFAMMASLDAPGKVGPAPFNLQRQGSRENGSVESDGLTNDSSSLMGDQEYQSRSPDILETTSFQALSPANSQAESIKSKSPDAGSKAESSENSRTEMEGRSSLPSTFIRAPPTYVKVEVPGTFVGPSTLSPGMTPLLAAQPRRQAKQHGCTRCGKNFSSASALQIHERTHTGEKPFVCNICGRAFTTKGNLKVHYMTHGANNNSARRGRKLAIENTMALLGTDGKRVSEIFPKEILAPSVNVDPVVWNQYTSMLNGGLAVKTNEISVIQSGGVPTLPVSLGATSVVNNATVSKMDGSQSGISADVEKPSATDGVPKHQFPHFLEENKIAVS
# DNA-binding protein Ikaros: DNA-binding protein Ikaros (Homo sapiens, UniProt Q13422)
# Chain of UniProt Q13422 (whole entry, looked up): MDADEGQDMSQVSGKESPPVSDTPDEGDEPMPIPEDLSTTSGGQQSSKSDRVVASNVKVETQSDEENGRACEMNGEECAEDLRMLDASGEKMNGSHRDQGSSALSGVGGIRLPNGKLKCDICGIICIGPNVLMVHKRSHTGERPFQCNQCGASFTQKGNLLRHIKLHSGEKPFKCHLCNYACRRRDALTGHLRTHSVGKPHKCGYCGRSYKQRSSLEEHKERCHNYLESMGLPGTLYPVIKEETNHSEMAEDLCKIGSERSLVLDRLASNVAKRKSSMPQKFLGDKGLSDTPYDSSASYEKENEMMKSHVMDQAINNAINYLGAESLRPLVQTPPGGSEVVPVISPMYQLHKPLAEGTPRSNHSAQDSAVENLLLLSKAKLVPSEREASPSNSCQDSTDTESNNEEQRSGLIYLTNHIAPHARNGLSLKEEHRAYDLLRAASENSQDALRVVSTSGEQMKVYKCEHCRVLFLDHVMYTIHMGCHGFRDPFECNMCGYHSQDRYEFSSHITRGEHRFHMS
# IKZF4: Zinc finger protein Eos (IKZF4, Homo sapiens, UniProt Q9H2S9)
# Chain of UniProt Q9H2S9 (whole entry, looked up): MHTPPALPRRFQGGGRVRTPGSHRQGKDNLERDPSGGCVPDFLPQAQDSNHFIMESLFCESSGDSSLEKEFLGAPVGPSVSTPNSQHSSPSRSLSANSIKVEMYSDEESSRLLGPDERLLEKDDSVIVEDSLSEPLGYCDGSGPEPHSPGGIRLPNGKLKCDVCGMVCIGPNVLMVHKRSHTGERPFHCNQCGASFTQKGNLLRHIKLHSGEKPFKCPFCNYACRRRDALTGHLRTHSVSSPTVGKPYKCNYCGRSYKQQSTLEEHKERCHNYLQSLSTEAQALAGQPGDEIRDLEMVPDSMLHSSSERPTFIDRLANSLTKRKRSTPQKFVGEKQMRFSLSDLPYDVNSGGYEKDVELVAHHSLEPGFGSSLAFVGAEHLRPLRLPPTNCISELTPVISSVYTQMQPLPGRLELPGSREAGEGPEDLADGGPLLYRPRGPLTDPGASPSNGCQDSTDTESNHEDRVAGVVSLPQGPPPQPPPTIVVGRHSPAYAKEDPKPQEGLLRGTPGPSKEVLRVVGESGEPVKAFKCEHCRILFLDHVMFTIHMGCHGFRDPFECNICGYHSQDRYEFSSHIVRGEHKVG
target,method,cell line,concentration,time,remaining protein
CRBN/Zinc finger protein Helios,flow cytometry,primary human regulatory T cells,37.04 nM,6 h,11% and 17.7%
CRBN/Zinc finger protein Helios,flow cytometry,primary human regulatory T cells,0.05081 nM,3 h,96.6% and 104%
SALL4,HiBiT,HEK293,3333.33 nM,,65.4% and 69.2%
DNA-binding protein Ikaros,HiBiT,HEK293,41.15 nM,,97.8% and 96.1%
IKZF4,HiBiT,HEK293,333.3 nM,6 h,100% and 107%
IKZF4,HiBiT,HEK293,111.1 nM,3 h,102% and 101%
CRBN/Zinc finger protein Helios,flow cytometry,Jurkat,1000 nM,,35% and 37.8%
CRBN/Zinc finger protein Helios,flow cytometry,primary human regulatory T cells,12.35 nM,6 h,23.6% and 33.1%
"GSPT1 (Homo sapiens, UniProt P15170)",HiBiT,HEK293,123.5 nM,,97.5% and 101%
DNA-binding protein Ikaros,HiBiT,HEK293,1.524 nM,,95.8% and 96.2%
IKZF4,HiBiT,HEK293,1000 nM,3 h,126% and 111%
CRBN/Zinc finger protein Helios,flow cytometry,Jurkat,0.5 nM,,102% and 92.2%
SALL4,HiBiT,HEK293,1.524 nM,,86.3% and 80.5%

# Sample 2
# SMILES: COc1cc(C(=O)OCCCN2CCCN(CCCOC(=O)c3cc(OC)c(OC)c(OCc4ccc([N+](=O)[O-])cc4)c3)CC2)cc(OC)c1OC
# Method: von Frey test
read-out,host,route,dose,time,setting,paw withdrawal threshold
,"mouse, CFA inflammatory pain",subcutaneous,10 mg/kg,5 h post-dose,"third injection, day 5",0.23 g and 0.51 g and 0.65 g and 0.44 g and 0.4 g
,"mouse, CFA inflammatory pain",subcutaneous,10 mg/kg,1 h post-dose,"third injection, day 5",0.29 g and 0.23 g and 0.4 g
,"mouse, CFA inflammatory pain",intraplantar,10 µg,1 h post-dose,day 3 after CFA,0.98 g and 1.3 g and 2.23 g
,"mouse, CFA inflammatory pain",intravenous,dose not given,3 h post-dose,"third injection, day 5",0.98 g and 0.65 g and 0.75 g and 1.3 g
,"mouse, CFA inflammatory pain",intravenous,dose not given,3 h post-dose,"first injection, day 1",0.98 g and 0.51 g and 0.65 g and 0.75 g
,"mouse, CFA inflammatory pain",subcutaneous,10 mg/kg,1 h post-dose,"second injection, day 3",0.23 g and 0.4 g and 0.29 g
mechanical pain,"mouse, STZ diabetic neuropathy",intravenous,30 mg/kg,3 h post-dose,"first injection, day 8",0.03 g and 0.2 g and 0.4 g and 0.51 g and 0.23 g
mechanical pain,"mouse, STZ diabetic neuropathy",intravenous,30 mg/kg,1 h post-dose,"first injection, day 8",0.65 g and 0.51 g and 0.98 g and 0.4 g

# Sample 3
# SMILES: COCCCCCCC1CC2C(CCC3(C)C(O)CCC23)c2ccc(O)cc21 (centres unmarked)
# Method: microarray
# Reference: untreated
cell line,item,concentration,log2 fold change
A549,GZMK,50 µM,3.71
A549,UBB,50 µM,-0.203
A549,ADAMTS14,10 µM,0.0489
A549,CCL8,50 µM,4.6
SK-OV-3,CCL8,50 µM,5.4
A549,ADAMTS14,50 µM,0.185
A549,UBB,10 µM,-0.434
A549,CCL11,50 µM,0

# Mixed results
Structure (SMILES),target or system,test system,setting,scale,endpoint,result
CC(C)NC(=O)N1CCC(NC2=Nc3cc(F)ccc3N(CC(F)F)c3ccc(Cl)cc32)C1 (stereo in doubt),sample J colorectal tumour organoid,,0.1 µM,reference: DMSO,viability,103%
CCCCC[C@@H](O)CC(=O)N[C@H]1COC(=O)[C@H](CO)NC(=O)[C@H](Cc2ccccc2)NC(=O)[C@@H](Cc2c[nH]c3ccccc23)NC(=O)[C@@H](C(C)O)NC(=O)[C@H](CC(N)=O)NC(=O)[C@@H](C(C)C)NC(=O)[C@H](CC(C)C)NC(=O)[C@@H](Cc2ccc(O)cc2)N(C)C(=O)CNC(=O)[C@H](CO)NC(=O)[C@@H](CC(N)=O)NC1=O (some centres unmarked),Staphylococcus aureus,USA300,together with: menaquinone 32 µg/mL,,MIC,> 64 µg/mL
CN(C)CC#Cc1ccc(OCCCc2sc(N3CCc4cccc(C(=O)Nc5nc6ccccc6s5)c4C3)nc2C(=O)O)c(F)c1,normal colon organoid sample F,,4 days,,IC50,8.9 µM

# A few entries again (sample 2):
read-out,host,route,dose,time,setting,paw withdrawal threshold
,"mouse, CFA inflammatory pain",intravenous,dose not given,3 h post-dose,"third injection, day 5",0.98 g and 0.65 g and 0.75 g and 1.3 g
,"mouse, CFA inflammatory pain",intravenous,dose not given,3 h post-dose,"first injection, day 1",0.98 g and 0.51 g and 0.65 g and 0.75 g
